Published values from different studies.
± gives the spread as reported.

SMILES	target	test	system	conditions	how to read	measurement	result
CC[C@H](C)[C@H](NC(=O)[C@H](Cc1c[nH]cn1)NC(=O)[C@H](CCCCNC(=O)[C@@H](NC(=O)[C@H](CCCCN)NC(=O)[C@H](Cc1ccccc1)NC(=O)[C@H](CCCCNC(=O)[C@H](CC(C)C)NC(=O)[C@@H]1CCCN1C(=O)[C@H](CCCCN)NC(=O)CCS[C@@H]1O[C@H](CO)[C@H](O)[C@H](O)[C@H]1O)NC(=O)[C@H](CC(C)C)NC(=O)[C@@H]1CCCN1C(=O)[C@H](CCCCN)NC(=O)CCS[C@@H]1O[C@H](CO)[C@H](O)[C@H](O)[C@H]1O)[C@@H](C)CC)NC(=O)[C@@H](NC(=O)[C@H](CCCCN)NC(=O)[C@H](Cc1ccccc1)NC(=O)[C@H](CCCCNC(=O)[C@H](CC(C)C)NC(=O)[C@@H]1CCCN1C(=O)[C@H](CCCCN)NC(=O)CCS[C@@H]1O[C@H](CO)[C@H](O)[C@H](O)[C@H]1O)NC(=O)[C@H](CC(C)C)NC(=O)[C@@H]1CCCN1C(=O)[C@H](CCCCN)NC(=O)CCS[C@@H]1O[C@H](CO)[C@H](O)[C@H](O)[C@H]1O)[C@@H](C)CC)C(N)=O	lecA (Pseudomonas aeruginosa, UniProt Q05097)	ITC	–	pH 7.5, 25 °C	–	entropy term (−TΔS)	0.3 kcal/mol
Nc1ncnc2c1ncn2C1CC(O)C(COP(=O)(O)OP(=O)(O)C(Cl)P(=O)(O)O)O1 (mixture of isomers)	DNA polymerase eta (POLH, Homo sapiens, UniProt Q9Y253)	dNTP incorporation, single-turnover kinetics	–	W sequence, A·T pair	relative to: non-enzymatic LFER line	delta effective pKa4	0.2 pK units
CN(C)C(=O)[C@@H](NC(=O)c1ccccc1-c1ccc(C(F)(F)F)cc1)c1cccc(C(F)(F)F)c1	NKG2-D type II integral membrane protein, with ULBP6 (KLRK1, Homo sapiens, UniProt P26718)	–	–	–	–	Emax	98 ± 39.9%
NCC1OC(OC(CO)C2CC(O)C(n3ccc(=O)[nH]c3=O)O2)C(O)C1O (stereo not drawn)	mraY (Aquifex aeolicus, UniProt O66465)	isothermal titration calorimetry	–	concentration not given, wild type, with: Mg2+	–	binding stoichiometry	0.44 ± 0.02
COC(=O)C1C(OC(c2ccc(Cl)cc2)c2ccc(Cl)cc2)CC2CCC1N2C (single isomer, unassigned)	rat NMDA receptor PCP site	binding, radioligand displacement	–	inactive if below 75% at 10000 nM, with: [3H]TCP	–	Ki	inactive
Nc1nc(Cl)nc2c1ncn2Cc1cc(OCC(F)F)cc(OC(F)F)c1	PDE7A (Homo sapiens, UniProt Q13946)	–	–	–	relative to: PDE8A1 IC50 over PDE7A1 IC50	selectivity ratio	441 fold
CCN(Cc1ccccc1)C(=O)CCc1nc(CN2CCN(C(=O)Cc3ccc(OC)c(OC)c3)CC2)no1	Voltage-gated potassium channel, KQT; KCNQ2(Kv7.2)/KCNQ3(Kv7.3) (KCNQ3/KCNQ2, Homo sapiens, UniProt O43525+O43526)	potassium current, whole-cell patch clamp	CHO, stable	3 µM	–	activation V1/2	-41.9 ± 2.47 mV
C#CCNC(=O)c1ccc(S(=O)(=O)N[C@@H](CCCCNC(=O)c2cncc(OS(=O)(=O)F)c2)C(=O)N[C@@H](CCCNC(=N)N)C(=O)NC2CCC2)cc1	SIRT5 (Homo sapiens, UniProt Q9NXA8)	enzyme activity, inhibitor, jump-dilution	–	concentration not given, 16 h preincubation, 100-fold dilution	relative to: DMSO	remaining activity	~10%
CCC(=O)C(NC(=O)c1ccccc1-c1ccc(C(F)(F)F)cc1)c1cccc(C(F)(F)F)c1 (stereo not drawn)	NKG2-D type II integral membrane protein, with MICA (KLRK1, Homo sapiens, UniProt P26718)	ligand binding, inhibitor, TR-FRET	HEK293 expressing NKG2D and DAP10	with: MICA-Alexa647	relative to: positive control	maximum inhibition	46%
CC(=O)NC(Cc1ccc(Br)c(Cl)c1)C(=O)N[C@@H](C)C(=O)N1CCC[C@H]1C(=O)N1CCC[C@H]1C(=O)N[C@@H](CCC(=O)O)C(=O)N[C@@H](Cc1c[nH]cn1)C(=O)N[C@@H](CO)C(=O)N[C@H](C(=O)N[C@@H](C)C(N)=O)[C@@H](C)OP(=O)(O)O (stereo partly drawn)	DAPK1 (Homo sapiens, UniProt P53355)	–	–	10 µM	–	inhibition	0.23 ± 0.01%
C[C@@]1(O)CC[C@H]2[C@H](CC[C@@H]3[C@@H]2CC[C@]2(C)[C@@H](C(=O)Cn4cccn4)CC[C@@H]32)C1	Membrane progestin receptor delta (Paqr6, Mus musculus, UniProt Q6TCG5)	pPKA/PKA immunoblot	MDA-MB-231 expressing Paqr6-GFP	100 nM, 20 min	relative to: control	PKA activation	97.9 ± 2.02%
O=C(CC(c1ccc(O)cc1)c1cccc(O)c1)N1CCCCC1 (stereo not drawn)	Amyloid-beta precursor protein, amyloid-beta 1-40 oligomers (APP, Homo sapiens, UniProt P05067)	binding, STD NMR	–	highest STD	–	STD NMR signal	15.5%
O=[N+]([O-])c1ccc(OP(=O)(O)O)cc1	Alkaline phosphatase PafA (pafA, Elizabethkingia meningoseptica, UniProt Q9KJX5, N100A)	–	Chryseobacterium meningosepticum	pH 8.0	relative to: wild type over mutant kcat/KM	relative catalytic efficiency	2.1
Cn1ccc(-c2ccc(Cn3cc(C(=O)N[C@H]4CCCC[C@@H]4O)c4c(F)cc(F)cc43)cn2)n1	Chrm1 (Mus musculus, UniProt P12657)	calcium mobilization, positive allosteric modulator	CHO cells	with: EC20 acetylcholine	relative to: ACh maximum	maximum response	77 ± 1%
Cc1cc(O)cc(C)c1CC(N)C(=O)NC1CCNc2c1cc(Cc1ccccc1)cc2C(C)(C)C (stereo not drawn)	Oprm1 (Rattus norvegicus, UniProt P33535)	agonist	C6 cells expressing MOR	–	relative to: DAMGO at 10 µM	efficacy	83%
CC(=O)N[C@@H](CC(C)C)C(=O)N[C@@H](C)C(=O)N[C@@H](C)C(=O)NN(CCC(=O)N(C)C)C(=O)CCl	Genome polyprotein, 3C protease (Human hepatitis A virus genotype IB, UniProt P08617, C1543S)	inhibitor	Hepatitis A virus	–	–	kinact/KI	680 M⁻¹ s⁻¹
NC(=O)N/N=C/c1ccc(OCc2ccccc2)cc1	MAOA (Homo sapiens, UniProt P21397)	enzyme activity, inhibitor, absorbance	–	10 µM	–	remaining activity	81.5%
CN1C(CCCc2ccccc2)CCC1CCCc1ccccc1 (stereo not drawn)	Slc18a2 (Rattus norvegicus, UniProt Q01827)	binding	rat whole brain vesicles	with: [3H]dihydrotetrabenazine	–	maximal inhibition	100%
CNC(=O)C1CCN(c2cc(C)c(F)cc2NC(=O)c2ccc(-c3cc(O)ccc3C)c(C)c2)CC1	EPHA4 (Homo sapiens, UniProt P54764)	NanoBRET	–	–	relative to: IC50 EPHA2 over EPHA4	selectivity ratio	11 fold
CCCCc1cn(-c2ccc(C(=O)N[C@H]3CCOC3=O)cc2)nn1	lasR (Pseudomonas aeruginosa, UniProt P25084)	reporter gene, agonist	Escherichia coli, DH5α pJN105L/pSC11	100 µM	relative to: OdDHL at same concentration	activation	0%
CC[C@H](C)[C@H](NC(=O)[C@H](CCC(=O)O)NC(=O)[C@H](CC(=O)O)NC(=O)c1ccc2c(c1)C(=O)OC21c2ccc(O)cc2Oc2cc(O)ccc21)C(=O)N[C@H](C(=O)N[C@@H](CC(N)=O)C(=O)N[C@@H](CCCCN)C(=O)N[C@H](C(=O)N[C@@H](CC(C)C)C(N)=O)C(C)C)C(C)C	yeast Vps4p Y33D	fluorescence polarization	–	concentration not given	relative to: wild-type Vps4p	binding affinity	decreased
